Published values pooled from the literature.
Lines come from different studies, so protocols differ.
Organism: Staphylococcus aureus

| Compound | assay | test system | conditions | MIC |
| --- | --- | --- | --- | --- |
| CC[C@H](C)[C@H](NC(=O)[C@@H](CCCNC(=N)N)NC(=O)[C@H](CCCNC(=N)N)NC(=O)[C@@H]1CCCN1C(=O)[C@@H]1CCCN1C(=O)[C@H](CCCCNC(=N)N)NC(=O)[C@@H]1CCCN1C(=O)[C@H](CCCNC(=N)N)NC(=O)[C@@H]1CCCN1C(=O)[C@H](CC(C)C)NC(=O)[C@H](Cc1ccc(O)cc1)NC(=O)[C@@H]1CCCN1C(=O)[C@@H]1CCCN1C(=O)[C@H](CCCCN)NC(=O)[C@H](CC(=O)O)NC(=O)[C@@H](N)C(C)C)C(=O)N[C@@H](Cc1ccc(O)cc1)C(=O)N[C@@H](CC(N)=O)C(=O)N[C@H](CCCNC(=N)N)C(N)=O | broth microdilution | DSM 6247 | 18 h, 37 °C, 25% MHB2 | 64 µg/mL |
| CCCCCCCCCC(=O)NCCCC[C@H](NC(=O)[C@H](CCCCN)NC(=O)[C@@H]1CSCC(=O)N[C@@H](CCCCN)C(=O)N[C@@H](CC(C)C)C(=O)N[C@@H](CCCCN)C(=O)NCCCC[C@@H]2NC(=O)[C@H](CCCCN)NC(=O)[C@H](CC(C)C)NC(=O)[C@H](CCCCN)NC(=O)CSC[C@H](NC(=O)[C@H](CC(C)C)NC(=O)[C@H](CC(C)C)NC(=O)[C@H](CCCCN)NC2=O)C(=O)N[C@@H](CC(C)C)C(=O)N[C@@H](CC(C)C)C(=O)N[C@@H](CC(C)C)C(=O)N1)C(N)=O | broth microdilution | MRSA clinical isolate |  | 64 µg/mL |
| CC(C)[C@H](NC(=O)CNC(=O)CNC(=O)[C@H](Cc1ccc(O)cc1)NC(=O)[C@H](CS)NC(=O)[C@@H](NC(=O)[C@H](Cc1c[nH]c2ccccc12)NC(=O)[C@H](Cc1ccccc1)NC(=O)[C@H](CS)NC(=O)[C@H](Cc1c[nH]c2ccccc12)NC(=O)[C@@H](N)CCCNC(=N)N)C(C)C)C(=O)N[C@@H](CS)C(=O)N[C@@H](Cc1ccc(O)cc1)C(=O)N[C@@H](CCCNC(=N)N)C(=O)N[C@@H](CCCNC(=N)N)C(=O)N[C@@H](CS)C(=O)N[C@@H](CCCNC(=N)N)C(=O)O | broth microdilution | ATCC 29213, Mueller-Hinton broth | 16 to 20 h, 37 °C | 4.39 µg/mL |
| C=C1NC(=O)C2CSCC3NC(=O)C(CSC(C)C(NC(=S)C(Cc4cnc[nH]4)NC(=O)c4csc(C(C)NC(C)=O)n4)C(=O)N[C@H](CC(C)C(=O)NC(=O)CC(C(=O)O)NC(=O)C(C)NC3=O)C(=O)N2)NC(=O)[C@@H]2CCCN2C(=O)[C@@H](CC(C)C)NC1=O (stereo partly drawn) | bacterial growth | NCTC 8325 |  | > 32 µg/mL |
| CN[C@H](CC(C)C)C(=O)N[C@H]1C(=O)N[C@@H](CC(N)=O)C(=O)N[C@H]2C(=O)N[C@H]3C(=O)N[C@H](C(=O)N[C@H](C(=O)N[C@@H](CCCNC(=N)N)C(N)=O)c4cc(O)cc(O)c4-c4cc3ccc4O)[C@H](O)c3ccc(c(Cl)c3)Oc3cc2cc(c3O[C@@H]2O[C@H](CO)[C@@H](O)[C@H](O)[C@H]2O[C@H]2C[C@](C)(NCc3ccc(OCc4cn(CC(=O)N[C@H](C(=O)N[C@@H](CCN)C(=O)N[C@H]5CCNC(=O)[C@H]([C@@H](C)O)NC(=O)[C@H](CCN)NC(=O)[C@H](CCN)NC(=O)[C@H](CC(C)C)NC(=O)[C@@H](CC(C)C)NC(=O)[C@H](CCN)NC5=O)[C@@H](C)O)nn4)c(OC)c3)[C@H](O)[C@H](C)O2)Oc2ccc(cc2Cl)[C@H]1O | broth microdilution | VISA NRS402, tryptic soy broth | 20 to 24 h, 37 °C, 0.002% polysorbate 80 | 4 µg/mL |
| CC(C)C[C@@H](NC(=O)[C@@H](CCCNC(=N)N)NC(=O)[C@H](N)CCCNC(=N)N)C(=O)N[C@H](CC(C)C)C(=O)N[C@H](CCCNC(=N)N)C(=O)N[C@H](CCCCN)C(=O)N[C@H](CC(C)C)C(=O)N[C@H](CCCCN)C(=O)NCC(=O)N[C@H](CCCCN)C(=O)N[C@H](CCCCN)C(=O)N[C@H](CC(C)C)C(=O)N[C@H](Cc1ccc(O)cc1)C(=O)N[C@H](CC(C)C)C(=O)N[C@H](Cc1ccc(O)cc1)C(=O)N[C@H](Cc1ccccc1)C(=O)N[C@H](CCCCN)C(=O)N[C@H](CC(C)C)C(=O)N[C@H](CCC(N)=O)C(=O)N[C@H](CC(C)C)C(=O)N[C@H](CC(C)C)C(=O)N[C@H](CCCCN)C(=O)N[C@H](CCCCN)C(N)=O | broth microdilution | KCTC 1621, Mueller-Hinton broth | no added salt | 8 µM |
| CC(C)C[C@H](NC(=O)[C@H](CCCCN)NC(=O)C1CCCC=CCCC(NC(=O)[C@H](CCCCN)NC(=O)[C@@H](N)CC(C)C)C(=O)N[C@@H](CCCCN)C(=O)NC2CCC=CCCCC(NC(=O)[C@H](CCCCN)NC(=O)CNC(=O)[C@H]3CCCN3C(=O)[C@H](CCCCN)NC2=O)C(=O)N[C@@H](CCCCN)C(=O)N1)C(N)=O (stereo partly drawn) | broth microdilution | ATCC 29737, Mueller-Hinton broth | 18 h, 37 °C | 128 µM |
| CNC(C)C1CCC(N)C(OC2C(N)CC(N)C(OC3OCC(C)(O)C(NC)C3O)C2O)O1 (stereo not drawn) |  | clinical isolate | 18 to 20 h, 37 °C | 2 µM |
| CC(C)C[C@@H]1NC(=O)[C@@H](CC(C)C)NC(=O)[C@H](CCN)NC(=O)[C@@H](NC(=O)[C@H](CCN)NC(=O)[C@@H](NC(=O)CN=[N+]=[N-])[C@@H](C)O)CCNC(=O)[C@H]([C@@H](C)O)NC(=O)[C@H](CCN)NC(=O)[C@H](CCN)NC1=O | broth microdilution | MRSA USA300, cation-adjusted Mueller-Hinton broth | 20 to 24 h, 37 °C, 0.002% polysorbate 80 | > 16 µg/mL |
| CC1CCN(C(=O)c2cccc(NC(=O)Nc3ccc(N)cc3)c2)CC1 | checkerboard, measured: ceftobiprole | CRB, PBP4 overexpressor | 25 µM | > 64 µg/mL |
| Oc1c(Br)cc(Br)c2nc3cc(Cl)ccc3nc12 | broth microdilution | 25923 |  | 0.3 µM |
| CCCCCCCCCCCCCC(=O)N[C@H]1C(=O)N[C@@H](CN)C(=O)N[C@@H](CO)C(=O)N[C@@H](Cc2ccc(O)cc2)C(=O)O[C@H]1C |  | SH1000 | added: lysophosphatidylethanolamine, molar ratio 1 | 2 µg/mL |
| CN[C@H](CC(C)C)C(=O)N[C@H]1C(=O)N[C@@H](CC(N)=O)C(=O)N[C@H]2C(=O)N[C@H]3C(=O)N[C@H](C(=O)N[C@H](C(=O)NCC(N)=O)c4cc(O)cc(O)c4-c4cc3ccc4O)[C@H](O)c3ccc(c(Cl)c3)Oc3cc2cc(c3O[C@@H]2O[C@H](CO)[C@@H](O)[C@H](O)[C@H]2O[C@H]2C[C@](C)(NCc3ccc(OCc4cn(CC(=O)N[C@H](C(=O)N[C@@H](CCN)C(=O)N[C@H]5CCNC(=O)[C@H]([C@@H](C)O)NC(=O)[C@H](CCN)NC(=O)[C@H](CCN)NC(=O)[C@H](CC(C)C)NC(=O)[C@@H](CC(C)C)NC(=O)[C@H](CCN)NC5=O)[C@@H](C)O)nn4)c(OC)c3)[C@H](O)[C@H](C)O2)Oc2ccc(cc2Cl)[C@H]1O |  | LIM-2 VISA |  | 0.74 µM |
| COc1ccc2ccc(O)c(/C=N/[C@H]3CCCC[C@H]3/N=C/c3c(C)cccc3O)c2c1 | bacterial growth, broth microdilution | vancomycin-intermediate |  | > 40 µM |
| Cc1ccc2[nH]c3c(c2c1)CCCC3NCCc1ccc(Br)cc1 (stereo not drawn) | broth microdilution | Mu50 VISA |  | 4 µg/mL |
| CC[C@H](C)[C@@H]1NC(=O)[C@H](CO)NC(=O)[C@H](CCCCN)NC(=O)[C@@H]2CSSC[C@@H](C(=O)N[C@@H](Cc3ccc(O)cc3)C(N)=O)NC(=O)[C@H](CCCCN)NC(=O)[C@@H]3CSSC[C@H](NC(=O)[C@H](CCCNC(=N)N)NC(=O)[C@H](CC(C)C)NC(=O)[C@H](CC(=O)O)NC(=O)[C@H](CC(=O)O)NC(=O)[C@H](CCC(=O)O)NC(=O)[C@H](CC(N)=O)NC(=O)[C@H](Cc4c[nH]c5ccccc45)NC(=O)C(C)(CC)NC(=O)CNC(=O)[C@H](CC(N)=O)NC(=O)[C@@H](NC(=O)CNC(=O)[C@H](Cc4ccccc4)NC(=O)CN)CSSC[C@H](NC(=O)[C@H](Cc4ccc(O)cc4)NC(=O)CNC(=O)CNC(=O)[C@H](CCCCN)NC(=O)[C@H](Cc4ccc(O)cc4)NC(=O)[C@H]4CCCN4C(=O)[C@@H]4CCCN4C1=O)C(=O)N[C@@H](C)C(=O)N[C@@H](CCCCN)C(=O)N1CCC[C@@H]1C(=O)NCC(=O)N[C@@H](Cc1ccccc1)C(=O)N[C@@H](C(C)C)C(=O)N3)C(=O)N[C@@H](Cc1c[nH]cn1)C(=O)N[C@@H](CC(N)=O)C(=O)N[C@@H](Cc1c[nH]cn1)C(=O)N2 (stereo partly drawn) | broth microdilution | USA300 MRSA | 18 h | 2 µM |
| CC(C)CCCCCCCCC/C=C/C(=O)N[C@@H](CC(N)=O)C(=O)N[C@H]1CNC(=O)[C@@H]2CCCN2C(=O)[C@H](C(C)C)NC(=O)[C@@H](CN)NC(=O)CNC(=O)[C@H](CC(=O)O)NC(=O)CNC(=O)[C@H](CC(=O)O)NC(=O)[C@H](CC(=O)O)NC(=O)[C@H]2CCCCN2C1=O | broth microdilution | MRSA USA300, Mueller-Hinton broth, Mg2+ 10 mg/L | 16 h, 37 °C, added: Ca2+ 2.5 mM | 8 µg/mL |
| CN[C@H](CC(C)C)C(=O)N[C@H]1C(=O)N[C@@H](CC(N)=O)C(=O)N[C@H]2C(=O)N[C@H]3C(=O)N[C@H](C(=O)N[C@H](C(=O)NCc4cn(CC(=O)N[C@H](C(=O)N[C@@H](CCN)C(=O)N[C@H]5CCNC(=O)[C@H]([C@@H](C)O)NC(=O)[C@H](CCN)NC(=O)[C@H](CCN)NC(=O)[C@H](CC(C)C)NC(=O)[C@@H](CC(C)C)NC(=O)[C@H](CCN)NC5=O)[C@@H](C)O)nn4)c4cc(O)cc(O)c4-c4cc3ccc4O)[C@H](O)c3ccc(c(Cl)c3)Oc3cc2cc(c3O[C@@H]2O[C@H](CO)[C@@H](O)[C@H](O)[C@H]2O[C@H]2C[C@](C)(N)[C@H](O)[C@H](C)O2)Oc2ccc(cc2Cl)[C@H]1O | broth microdilution | VISA NRS402, tryptic soy broth | 20 to 24 h, 37 °C, 0.002% polysorbate 80 | 16 µg/mL |

Some of these lines once more:
| Compound | assay | test system | conditions | MIC |
| --- | --- | --- | --- | --- |
| CC[C@H](C)[C@H](NC(=O)[C@@H](CCCNC(=N)N)NC(=O)[C@H](CCCNC(=N)N)NC(=O)[C@@H]1CCCN1C(=O)[C@@H]1CCCN1C(=O)[C@H](CCCCNC(=N)N)NC(=O)[C@@H]1CCCN1C(=O)[C@H](CCCNC(=N)N)NC(=O)[C@@H]1CCCN1C(=O)[C@H](CC(C)C)NC(=O)[C@H](Cc1ccc(O)cc1)NC(=O)[C@@H]1CCCN1C(=O)[C@@H]1CCCN1C(=O)[C@H](CCCCN)NC(=O)[C@H](CC(=O)O)NC(=O)[C@@H](N)C(C)C)C(=O)N[C@@H](Cc1ccc(O)cc1)C(=O)N[C@@H](CC(N)=O)C(=O)N[C@H](CCCNC(=N)N)C(N)=O | broth microdilution | DSM 6247 | 18 h, 37 °C, 25% MHB2 | 64 µg/mL |
| CNC(C)C1CCC(N)C(OC2C(N)CC(N)C(OC3OCC(C)(O)C(NC)C3O)C2O)O1 (stereo not drawn) |  | clinical isolate | 18 to 20 h, 37 °C | 2 µM |
